Assay results pooled from the literature.
Each line is one published result; not all experiments were run side by side. Several values in a cell are separate wells, animals, samples, runs or records. Numbers after ± are the reported error. In brackets after ≈: the same amount, converted by molar mass.

SMILES | tested on | test | test system | setting | scale | quantity | value
CCCNCCc1c[nH]c2cccc(O)c12.CCCNCCc1c[nH]c2cccc(O)c12.O=C(O)/C=C/C(=O)O | – | – | C57BL/6J mice | subcutaneous, 0.03 mg/kg, 30 min | – | distance travelled | 2240 ± 207 cm
CC[C@H](C)[C@@H]1NC(=O)[C@@H]2CCCN2C(=O)[C@H](CC(C)C)NC(=O)[C@H](CC(C)C)NC(=O)CNC(=O)[C@@H](NC(=O)[C@@H](NC(=O)[C@H](CC(=O)O)NC(=O)CNC(=O)[C@@H](NC(=O)[C@H](C)NC(=O)CNC(=O)[C@H](CCCCN)NC(=O)[C@H](CC(C)C)NC(=O)[C@H](CC(C)C)NC(=O)[C@H](CCCCN)NC(=O)CNC(=O)[C@@H](NC(=O)[C@@H](N)CC(C)C)C(C)C)C(C)C)C(C)C)CSSC[C@@H](C(=O)O)NC1=O | – | RNA-seq, refers to: Acap1 | mouse, traumatic brain injury model, frontal cortex and hippocampus | dose not given | relative to: TBI alone | log2 fold change | -4.17
CN1CCN(C2(CNC3CCN(c4cccc(-c5cc6cc(F)ccc6[nH]5)c4)CC3)CCC2)CC1 | UO-31 | – | – | – | – | CC50 | 6.39 µM
CCN(CC)CCCC(C)Nc1ccnc2cc(Cl)ccc12.O=S(=O)(O)O (stereo not shown) | Dengue virus type 2 | viral replication, Rluc reporter replicon | BHK-21 DENV2 replicon cells | 50 µM, 24 h | – | inhibition | 28.1 ± 3.6%
C=CCNCCc1c[nH]c2cccc(O)c12.C=CCNCCc1c[nH]c2cccc(O)c12.O=C(O)/C=C/C(=O)O | – | – | C57BL/6J mice | subcutaneous, 30 mg/kg, 30 min | – | distance travelled | 1360 ± 337 cm
COc1c(CCC[P+](c2ccccc2)(c2ccccc2)c2ccccc2)cc2c(c1OC)OCO2.[I-] | NCI-H322M | SRB | – | – | – | LC50 | > -4 log M
C=CCN1CC[C@]23c4c5ccc(O)c4O[C@H]2C(=O)CC[C@@]3(O)[C@H]1C5 | – | tail-flick test | male ICR-CD1 mice | subcutaneous, 5 mg/kg, 45 min | – | % MPE | -32% and -3.13% and -37.4% and 8.63% and 3.85% and 2.33%
CN1CCN(S(=O)(=O)c2cc([N+](=O)[O-])ccc2N(CCOS(C)(=O)=O)CCOS(C)(=O)=O)CC1 | – | – | NSG mice, sample BF PDX | intraperitoneal, 25 mg/kg weekly x3 | relative to: treated over vehicle | EFS ratio (T/C) | 1
CC(C)(C)NCCc1c[nH]c2cccc(O)c12.CC(C)(C)NCCc1c[nH]c2cccc(O)c12.O=C(O)/C=C/C(=O)O | – | – | C57BL/6J mice | subcutaneous, 0.3 mg/kg, 30 min | – | distance travelled | 2640 ± 212 cm
CC(C)N1CCC(NC2CCN(c3cccc(-c4cc5cc(F)ccc5[nH]4)c3)CC2)CC1 | U-251 | – | – | – | – | GI50 | 1.53 µM
C[C@H]1O[C@@H](O[C@H]2CC[C@@]3(C)[C@@H](CC[C@]4(C)[C@@H]3C=C[C@]35OC[C@@]6(CCC(C)(C)C[C@H]63)[C@@H](O)C[C@]54C)[C@]2(C)CO)[C@H](O)[C@@H](O[C@@H]2O[C@H](CO)[C@@H](O)[C@H](O)[C@H]2O)[C@H]1O | – | histology | hepatic SIRT1 knockdown mice, liver | dose not given, high dose, normal diet | – | Oil Red O area | 0.0398% and 0.0397% and 0.0415%
CCCCC1(CCCC)CN(c2ccccc2)c2cc(SC)c(OCC(=O)N[C@@H](C(=O)NCC(=O)O)c3ccccc3)cc2S(=O)(=O)C1 | – | refers to: LDL cholesterol | human, serum | 2.5 mg once daily, day 13 | – | serum LDL-C | 101 mg/dL
CCCCCCCCCCCCCCCCCC[N+](C)(C)CCCCCCCCCC[N+](C)(C)CCCCCCCCCCCCCCCCCC.[Br-].[Br-] | influenza A virus A/PR/8/34 (H1N1) | – | – | concentration not given, post-treatment | – | HA titre reduction | 3 log units
C[C@]12CC[C@H]3[C@@H](CC=C4CC(O)CC[C@@]43CO)[C@@H]1CCC2O (stereo partly shown) | – | refers to: TIMP-1 | rat, GAN diet-induced MASH, plasma, pooled | dose not given | relative to: vehicle | fold reduction | ~1.6 fold
CCCCCCCCCCCCCCCC[N+](C)(C)CCCCCCCCCCCC[N+](C)(C)CCCCCCCCCCCCCCCC.[Br-].[Br-] | influenza A virus A/PR/8/34 (H1N1) | – | – | concentration not given, co-treatment | – | protection | 83.6 ± 6.6%
C[C@H](N)[C@H](O)c1ccc(O)c(O)c1 | human iPSC-derived cardiomyocytes | MyBP-C/MYH ratio, plate-normalised SD score | – | concentration not given, primary screen | direction not given | activity score | -5

SMILES | tested on | test | test system | setting | scale | quantity | value
[Ca+2] | Halyomorpha halys | outward current, inhibitor, whole-cell patch clamp | – | 1 mM, Nan-Iav W701A | – | inhibition | 12.8%
O=C(O)/C=C/C(=O)O.Oc1cccc2[nH]cc(CCNCc3ccccc3)c12 | – | – | C57BL/6J mice | subcutaneous, 1 mg/kg | – | head twitch count | 12.7 ± 1.4
CCC(CC)O[C@@H]1C=C(C(=O)O)C[C@H](N)[C@H]1NC(C)=O | influenza A virus A/PR/8/34 (H1N1) | – | – | concentration not given, co-treatment | – | HA titre reduction | 8 log units
COc1cc(CCC[P+](c2ccccc2)(c2ccccc2)c2ccccc2)c(OC)c2c1OCO2.[I-] | NCI-H522 | SRB | – | – | – | TGI | -4.92 log M
CCCCCCCCCCCC[N+](C)(C)CCCNCCC[N+](C)(C)CCCCCCCCCCCC.[Br-].[Br-] | influenza A virus A/PR/8/34 (H1N1) | – | – | concentration not given, pre-treatment | – | HA titre reduction | 3 ± 2 log units
CS(=O)(=O)Nc1ncn(-c2cc(F)c(COc3ccc(OS(=O)(=O)F)cc3)c(F)c2)n1 | Mycobacterium tuberculosis | – | H37Rv | – | – | MBC | 0.078 µM (≈ 0.0373 µg/mL)
CC(C)NCCc1c[nH]c2cccc(O)c12.O=C(O)/C=C/C(=O)O | – | – | C57BL/6J mice | subcutaneous, 0.03 mg/kg, 30 min | – | distance travelled | 2070 ± 262 cm
CCCCCCCCCCCC[N+](C)(C)CCOCC[N+](C)(C)CCCCCCCCCCCC.[Br-].[Br-] | influenza A virus A/PR/8/34 (H1N1) | – | – | concentration not given, co-treatment | – | HA titre reduction | 6 ± 1 log units
CCNCCc1c[nH]c2cccc(O)c12.CCNCCc1c[nH]c2cccc(O)c12.O=C(O)CCC(=O)O | – | – | C57BL/6J mice | subcutaneous, 0.1 mg/kg | – | head twitch response | 9.8 ± 2.5 count/30 min
CCCCCCCCCCCCCCCCCC[N+](C)(C)Cc1ccc(C[N+](C)(C)CCCCCCCCCCCCCCCCCC)cc1.[Br-].[Br-] | influenza A virus A/PR/8/34 (H1N1) | – | – | concentration not given, pre-treatment | – | protection | 74.4 ± 2.1%
O=C(O)/C=C/C(=O)O.Oc1cccc2[nH]cc(CCNC3CCCCC3)c12 | – | – | C57BL/6J mice | subcutaneous, 0.1 mg/kg, 30 min | – | distance travelled | 2280 ± 208 cm
COc1ccc(-n2nc(C(C)=O)s/c2=N\N=C(/C)c2ccc(NC(C)=O)cc2)cc1 | WI-38 | – | – | 0.625 µM | – | toxicity | 96.5%
COc1c(C)c2c(c(O)c1C/C=C(\C)CCC(=O)O)C(=O)OC2 | PBMC | cell proliferation | – | – | – | IC50 | > 10 µM
O=C(Cc1cccc(I)c1)N[C@H]1CCOC1=O | ExpR2 (Pectobacterium carotovorum) | cellulase activity, antagonist | Pectobacterium carotovorum, single-ExpR2 strain | 5 µM, 4 h, together with: OHHL 5 µM | – | inhibition | 63%
CC[C@H](C)[C@H](NC(=O)[C@H](C)NC(=O)[C@H](CCCCN)NC(=O)[C@H](CC(C)C)NC(=O)[C@H](C)NC(=O)[C@@H](NC(=O)[C@H](Cc1c[nH]cn1)NC(=O)[C@H](CC(C)C)NC(=O)[C@@H](NC(=O)[C@@H](NC(=O)[C@H](CCCCN)NC(=O)[C@H](C)NC(=O)[C@H](C)NC(=O)[C@H](CO)NC(=O)[C@H](CCCCN)NC(=O)[C@H](Cc1ccccc1)NC(=O)[C@@H](NC(=O)[C@H](CCCCN)NC(=O)[C@H](CC(C)C)NC(=O)[C@H](Cc1ccccc1)NC(=O)[C@H](CO)NC(=O)[C@H](CCCCN)NC(=O)[C@H](Cc1c[nH]c2ccccc12)NC(=O)[C@H](CCCCN)NC(C)=O)[C@@H](C)O)[C@@H](C)O)C(C)C)[C@@H](C)O)C(=O)N[C@@H](CO)C(=O)N[C@@H](CO)C(N)=O | Enterococcus faecalis | – | ATCC 29212 | – | – | MBC range | 32 µg/mL (≈ 10.9 µM)

For quick reference, copied from above:
SMILES | tested on | test | test system | setting | scale | quantity | value
CC(C)NCCc1c[nH]c2cccc(O)c12.O=C(O)/C=C/C(=O)O | – | – | C57BL/6J mice | subcutaneous, 0.03 mg/kg, 30 min | – | distance travelled | 2070 ± 262 cm
O=C(O)/C=C/C(=O)O.Oc1cccc2[nH]cc(CCNCc3ccccc3)c12 | – | – | C57BL/6J mice | subcutaneous, 1 mg/kg | – | head twitch count | 12.7 ± 1.4
